Assay results pooled from the literature.
Lines come from different studies, so protocols differ. Values joined by “and” are separate records of one study, mostly repeats; a detail may differ. ± gives the spread as reported.

Compound | test | system | setting | scale | endpoint | result
O=S(=O)(NCc1ccncc1)c1ccc(C2CCCCC2)cc1 | immunohistochemistry | CK-p25 mice male, hippocampal granule layer | ip, 0.3 mg/kg daily, 2 wk | reference: vehicle | increase of intact GFP+ neurons | ~29%
COC1CN([C@H]2CC[C@H]([C@@]3(C)Oc4c(Cl)cc(C(=O)NCc5c(SC)cc(C)[nH]c5=O)c(C)c4O3)CC2)C1 | RNA-seq, refers to: TRIM36 mouse homolog | mouse, HT-1376 xenograft, whole blood | dose not given | reference: vehicle | log2 fold change | 0.141
COC1OC(C)C(OC2OC(C)C(OS(=O)(=O)O)C(OC3OC(C)C(OC4OC(C)C(OS(=O)(=O)O)C(OC5OC(C)C(OS(=O)(=O)O)C(OS(=O)(=O)O)C5OS(=O)(=O)O)C4OS(=O)(=O)O)C(OS(=O)(=O)O)C3OS(=O)(=O)O)C2OS(=O)(=O)O)C(OS(=O)(=O)O)C1OS(=O)(=O)O (stereo not shown) | – | human plasma | 64 µg/mL | – | activated partial thromboplastin time | 80.4 s and 82.5 s and 81.1 s
O=C(CN1CCCCC1)Nc1ccc(C2CCCCC2)cc1 | – | rat liver microsomes | 1 µM | – | hepatic clearance | 49 mL/min/kg
COCC1CN(C2CCN(c3cc(OC)c(Nc4ncc(Br)c(Nc5ccc6c(c5P(C)(C)=O)OCCO6)n4)cc3C)CC2)C1 | RECIST 1.1 | advanced EGFR-mutant NSCLC patients | 60 mg once daily | – | not evaluable patients | 0%
CC(CCC(=O)NCc1ccc(C(=O)NO)cc1)C1CCC2C3C(O)CC4CC(O)CCC4(C)C3CCC12C (stereo not shown) | refers to: GUDCA | PCK rat (Pkhd1 mutant), portal blood | oral gavage, dose not given, 5 months | reference: total bile acids | relative abundance | 1.72%
CN1CCC[C@]1(C)/C=C/S(=O)(=O)NC(=O)Nc1c2c(cc3c1CCC3)CCC2 | IL-18 release | human, whole blood ex vivo | oral, 12.5 mg twice daily, day 14, 336 h, multiple ascending dose, together with: LPS and ATP | – | inhibition | 86.8%
Cc1ccc(N(O)/N=N/c2ccc(S(=O)(=O)Nc3nccs3)cc2)cc1 | ABTS scavenging | – | 120 µg/mL | – | inhibition | 55%
O=C(CN1CCCCC1)Nc1ccc([C@H]2[C@@H](F)[C@@H](F)C[C@@H](F)[C@H]2F)cc1 | – | cynomolgus liver microsomes | 1 µM | – | hepatic clearance | 16 mL/min/kg
COC1OC(C)C(OC2OC(C)C(O)C(OC3OC(C)C(OC4OC(C)C(O)C(OC5OC(C)C(OC6OC(C)C(O)C(OC7OC(C)C(O)C(OS(=O)(=O)O)C7OS(=O)(=O)O)C6OS(=O)(=O)O)C(OS(=O)(=O)O)C5OS(=O)(=O)O)C4OS(=O)(=O)O)C(OS(=O)(=O)O)C3OS(=O)(=O)O)C2OS(=O)(=O)O)C(OS(=O)(=O)O)C1OS(=O)(=O)O (stereo not shown) | – | human plasma | 32 µg/mL | – | activated partial thromboplastin time | 54.3 s and 55.9 s and 54.2 s
Nc1nc2cc(CC[C@H]3C[C@@H](n4ccc5c(N)ncnc54)[C@H](O)[C@@H]3O)ccc2cc1Br | – | A-427 xenograft, mouse | 3.0 mg/kg/day, day 34 | – | %ΔTGI | 107%
COc1cc(O)ccc1CCC(c1ccc(O)cc1)c1cc2c(c(C)c1O)OC(c1ccc(O)cc1)CC2 (mixture of isomers) | refers to: eicosapentaenoic acid | human whole blood | 30 µM, together with: Escherichia coli | – | amount | 50700 ± 5160 pg/mL blood
COC1OC(C)C(OS(=O)(=O)O)C(OC2OC(C)C(OS(=O)(=O)O)C(OC3OC(C)C(OS(=O)(=O)O)C(OC4OC(C)C(OS(=O)(=O)O)C(OC5OC(C)C(OS(=O)(=O)O)C(OS(=O)(=O)O)C5OS(=O)(=O)O)C4OS(=O)(=O)O)C3OS(=O)(=O)O)C2OS(=O)(=O)O)C1OS(=O)(=O)O (stereo not shown) | – | human plasma | 8 µg/mL | – | activated partial thromboplastin time | 39.7 s and 39.3 s and 40 s

Repeated from above:
Compound | test | system | setting | scale | endpoint | result
CN1CCC[C@]1(C)/C=C/S(=O)(=O)NC(=O)Nc1c2c(cc3c1CCC3)CCC2 | IL-18 release | human, whole blood ex vivo | oral, 12.5 mg twice daily, day 14, 336 h, multiple ascending dose, together with: LPS and ATP | – | inhibition | 86.8%
Cc1ccc(N(O)/N=N/c2ccc(S(=O)(=O)Nc3nccs3)cc2)cc1 | ABTS scavenging | – | 120 µg/mL | – | inhibition | 55%
